Assay results gathered from unrelated publications.
Parts stem from different laboratories: compare values within a part only.

Series 1 — technique: RNA Bind-n-Seq; molecule type: RNA; sample: in vitro; tested at: not given; reference: input RNA pool; reading: higher = stronger binding
Target: RING finger protein unkempt homolog, zinc fingers 1-6, GST-SBP tag (UNK, Homo sapiens, UniProt Q9C0B0, residues 30-357)
Chain of UniProt Q9C0B0 (30-357, looked up): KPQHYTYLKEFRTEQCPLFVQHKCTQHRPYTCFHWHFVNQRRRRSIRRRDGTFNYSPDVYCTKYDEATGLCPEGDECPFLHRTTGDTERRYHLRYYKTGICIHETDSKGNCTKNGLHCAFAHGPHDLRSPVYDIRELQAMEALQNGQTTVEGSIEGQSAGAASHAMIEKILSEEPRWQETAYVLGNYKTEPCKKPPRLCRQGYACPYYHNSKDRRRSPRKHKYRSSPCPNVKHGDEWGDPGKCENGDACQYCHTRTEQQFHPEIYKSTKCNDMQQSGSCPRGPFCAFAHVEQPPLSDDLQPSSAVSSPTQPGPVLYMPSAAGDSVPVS
Setting: RNA with constant flanks, human and mouse sites, ends assumed
`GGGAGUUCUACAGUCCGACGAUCAAUCCGUAUGUUUAUACUUCUAAAUCUGCCUGAGUGACCUUGAAAAGGGAACCAGUGUGUUUAGGAGAAAAAAGCAACAGGAUACAAACCAAAGUCUUUUAUAAUUGUGGCAAGAGUUGACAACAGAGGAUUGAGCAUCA` has a bound/input enrichment of 0.161 ratio.
For `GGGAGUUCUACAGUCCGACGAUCAAGCGUCUUAUUGGACGACGAUAUGAUGACCCUGAAGUACAGAAAGACACUAAGAAUGUUCCUUUUAAAAUUGUCCGUGCCUCCAAUGGUGAUGCUUGGGUUGAGGCUCAUGGAAAACUCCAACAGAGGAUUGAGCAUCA`, the bound/input enrichment was 0.105 ratio.
`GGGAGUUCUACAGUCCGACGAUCUCUUUCCAAAGCAAUGUCUAAAAACUCUUUUUUUUAAAGUAACAGUUUGGUAUGUUUAUUGUAGAUAAAUUAUUUUUGAGGCCUUCAUUUUAGCUAAGUUUAGAAUUUAUAUUAGGCAACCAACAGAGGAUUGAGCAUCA` has a bound/input enrichment of 12.1 ratio.
`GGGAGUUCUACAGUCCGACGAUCGCUGUGCUGGGUUAACAGCUUCCUUCCCUUUCUGUGUAGCAGUCUUGAAAUGUUCUGUUUAAAUCAGUAGGCUUAAUGUGUUCUGGGUAUUUAUCUCCUUGUAUUUUAAAUAUAUGUAGUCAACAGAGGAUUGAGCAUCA` has a bound/input enrichment of 1.05 ratio.
`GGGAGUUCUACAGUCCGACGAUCACUUGUAAUUUCUUUCUGCUUAGAAUCUAAAGAUGUGUUUAGAACCUCUUGUUUAAAAAUAAUAGACUGCUUAUCAUAAAAUCACAUCUCACACAUUUGAGGCAGUGGUCAAACAGGUAACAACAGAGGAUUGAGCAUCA` gave a bound/input enrichment of 1.39 ratio.
`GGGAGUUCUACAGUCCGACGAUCCUCGGCACCGGCACGCUUUACAUCGCGGAGAGCCGCCUGUCCUGGUUAGAUGGUUCGGGAUUAGGAUUCUCACUGGAAUACCCCACCAUUAGUUUACAUGCGGUGUCCAGGGAUCCAAACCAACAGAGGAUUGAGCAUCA` has a bound/input enrichment of 0.326 ratio.
`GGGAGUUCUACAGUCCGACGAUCCACCGGAGAACGGAUACCAGUCCUUGCUGAGUAGCGACGAUCAGCUCUUCAUUUACGAAACGGCCGGGGCGCUGAUUGUUAACAGUGAAUACCCCGCAGAAAAUAAGCAGGCCUUAAUGACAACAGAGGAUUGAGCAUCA` has a bound/input enrichment of 0.162 ratio.
With `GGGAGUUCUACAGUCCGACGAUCGAGAGCCGAGGGCCAGGCUCCCCGCACCCUGCCCGCCGCCCCGGGGACGGCCCGGCCAGGCGGCCCCGACGUCGCCAUGGAAACAGCCGGGGCGCGGGCGGCGCCGCGGUCGCCCGGGCGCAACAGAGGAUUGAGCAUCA` the bound/input enrichment was 1.32 ratio.

Series 2 — technique: RNA Bind-n-Seq; molecule type: RNA; sample: in vitro; tested at: 365 nM; reference: no-protein control; reading: higher = stronger binding
Target: RNA binding protein fox-1 homolog 2, RRM domain, GST-SBP tag (RBFOX2, Homo sapiens, UniProt O43251-10, residues 100-194)
Setting: natural RNA segment, single round, ends assumed
Construct (chain): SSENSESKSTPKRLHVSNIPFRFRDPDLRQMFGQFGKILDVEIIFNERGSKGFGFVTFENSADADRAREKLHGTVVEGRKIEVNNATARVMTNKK
`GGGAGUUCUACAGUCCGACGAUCUAUGUUGGUCAGCGUCCACCUCCUAAGCUCAUAGGCAAAACUCACAGGUUAAAAUGGAAUUUAAUCUCAGAGAUCCUUUGUUCAAGAAUAUUUGAUUGCAUAUUUAGUUGUGGAAUUCUCGGGUGCCAA`: “RBNS enrichment (R)” 0.66.
`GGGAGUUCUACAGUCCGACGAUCGGCUAGCCAAGGGGCCACUUCUUGGUAGGAAGGUAUGACAGAGUACUUUCCCAAGUUCCUCACGAGGGUUGCAUAUGCUUUAGAGGGUCCACAAUGCUUUUGUUGUCUUGUGGAAUUCUCGGGUGCCAA` — result for “RBNS enrichment (R)”: 0.641.
`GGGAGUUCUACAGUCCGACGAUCAUUUUGCAACUUACCUGUGAGCCUGCAAUUAUUUGAGGUUUUUGAGCAAUUGGUGUUUCUAUGUGUUUUCUAAAUAGAGAUGAUAUCUUUUUUUUUUUCACUUAGAAUUUUGGAAUUCUCGGGUGCCAA`: “RBNS enrichment (R)” 0.593.
Under “RBNS enrichment (R)”, `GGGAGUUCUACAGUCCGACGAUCGUGGAUGUUUAGUGCAGCCACAGACUUGUAUUUUGAUCCCCAAUUUUUUUUUGAAAGAGUUCUCCUCAUAGGAGGAUGAUUCAGCAUCAGAAGAAGAAGGAACCCAUAGCUGGAAUUCUCGGGUGCCAA` is recorded as 0.413.
`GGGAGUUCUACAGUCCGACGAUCGAACCAGCAGCCGCUAGGCCAAUCCCUGGUGGUCGGUCUCCAUCCCGAUUCCUGCCUGCCCGCUUUGAGAGACCCGGUCACUUGCUUGUGGGCCCUCCCACUUGCCUCUGUGGAAUUCUCGGGUGCCAA` — result for “RBNS enrichment (R)”: 0.372.
Under “RBNS enrichment (R)”, `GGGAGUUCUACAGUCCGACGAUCCAUGUGCCUGUCUAUAGGUAGCAAGCAAUCUCUCCAUUUGAUCCUGUUCCAAACUAUUCCAUCAUCCUGUCCCAAUUGCCAAUAGAAAAGCUAAAAUCCCUGGCUCAGUUUGGAAUUCUCGGGUGCCAA` is recorded as 0.78.
Under “RBNS enrichment (R)”, `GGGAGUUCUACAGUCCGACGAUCCCCUCCACUCCUUCCUGCCACCUGCUGCUGCUGCUGCUGCUAAUCUUCAGGGCACUGCUGCUGCCUUUAGUCGCUGAGGAAAAAUAAAGACAAAUGCUGCGCCCUUCCCCUGGAAUUCUCGGGUGCCAA` is recorded as 0.843.
Under “RBNS enrichment (R)”, `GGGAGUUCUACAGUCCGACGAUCGAAGAACCUUCUGGGCCUAGAGGCAGACGCUGCAUUGCACUAUUCCAGUGUCUUCCACGGAGCCUCUGGGGCUCCUCCCUCACCUGGCAGCCCCUCCAGCUGCUGGUGAUUGGAAUUCUCGGGUGCCAA` is recorded as 0.648.
Under “RBNS enrichment (R)”, `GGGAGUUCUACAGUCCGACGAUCCUUGGGUGACUGAUGGUUUAACUUGGUAAGUUGUAAUCUUUCCUGAAAGAGGAAGGAGCUGAAGUUGGUUGGCCCUGCUGCACCCCCUUACAAGGUUGUGAGGCCCUCUCUGGAAUUCUCGGGUGCCAA` is recorded as 0.231.

Series 3 — technique: EMSA with sequencing; molecule type: double-stranded DNA, one strand shown; sample: in vitro; tested at: 10 and 20 nM; reference: negative control set to 0; reading: higher = stronger binding
Target: Hepatocyte nuclear factor 3-alpha (Foxa1, Mus musculus, UniProt P35582, residues 1-468, full length assumed)
Setting: whole designed probe, mean of two concentrations, ends assumed
Residues (chain): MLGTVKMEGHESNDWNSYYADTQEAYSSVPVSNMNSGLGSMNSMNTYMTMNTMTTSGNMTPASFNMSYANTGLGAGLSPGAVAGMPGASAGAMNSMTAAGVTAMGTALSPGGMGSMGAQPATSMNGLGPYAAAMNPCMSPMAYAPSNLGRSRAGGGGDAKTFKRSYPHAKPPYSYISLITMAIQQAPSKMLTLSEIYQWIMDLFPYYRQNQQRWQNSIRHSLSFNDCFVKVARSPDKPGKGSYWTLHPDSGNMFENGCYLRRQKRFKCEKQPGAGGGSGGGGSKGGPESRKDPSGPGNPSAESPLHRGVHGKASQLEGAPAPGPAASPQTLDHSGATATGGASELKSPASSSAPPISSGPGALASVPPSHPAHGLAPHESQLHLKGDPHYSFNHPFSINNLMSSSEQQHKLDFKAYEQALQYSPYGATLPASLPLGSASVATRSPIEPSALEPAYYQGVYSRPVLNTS
For `GTGAGCGGTGCCCATTGATGGGGAACGAGCAGGTGATAGCTCTTAAACAACCAGCCAGTCCCAGGTTTTCAGCCCAGTGTTTGTTCACTTATCCCAGACGCTTGACTCACGAGGGACCGTGTTTATACTGGCTCTGTCCCAGGGTCACTTTGGTTGAGTGGTATCCATTGGTGTGGCTCCTACAGCAAAAGACCAAGTCCTGATGCCAAGAGAGATTAGTTTCACTGGGATCGTGGGGAC`, “normalised bound fraction” read 0.14 ratio.
For `GTGAGCGGTGCCCATTGATGGGGAACTGAACAAAAAAAACAAAAATAAAAAACAAAAACAAGAGCATACAGTTTCAAAAGCACACTGGATGGAAATGTCAGATAGTGTCAGAAAAACATGTTTACTTTGTGAAGAAAGAGATTATTTATACTTTGTGGGGACAAGTTAATTATCCCCTGCCTTAGAGGAGATGTCATTCCATTCTAGATATTTTTGGTATTTCACTGGGATCGTGGGGAC`, “normalised bound fraction” read 0.43 ratio.
`GTGAGCGGTGCCCATTGATGGGGAACTTTCTGCTGGAAAATTCTATCTGTCAATAGAGTTCTTAAAAGGATTTGTATTAAGCCTTCCACAGATACTCTGATATTAAAATCAGGTCTGAGTAAACAGGTACATTCTGTGTAGTTAAAATTAAATACTGCTATAAATATGCCCAGTGGGGTAATCCAATTTACTAGTCACTTCAGAGCTGATATGAAGGTCTTTCACTGGGATCGTGGGGAC` — result for “normalised bound fraction”: 0.242 ratio.
`GTGAGCGGTGCCCATTGATGGGGAACTTTTGTCCAATTTATTAACTCCTGGAAAACGGCACTCAGTCTATTGCAAGAAAAGCCTTTGCTGATGAGCATGACCAGAATTTGCATACTTTCTAGATTACATAACACTTATTCTTTACTAGTGGGCAAAATTGCTTATAAGCTGTTAAGCAGGGTATTGGAAGGCCTCTATGGAACTTCACTTATCAGTGATTTTCACTGGGATCGTGGGGAC`: “normalised bound fraction” -0.0386 ratio.

Series 4 — technique: RNA Bind-n-Seq; molecule type: RNA; sample: in vitro; tested at: 200 nM; setting: whole 134-nt RNA, ends assumed; added: 150 mM KCl; reference: input library; reading: higher = stronger binding
Target: Ras GTPase-activating protein-binding protein 1, full length (G3BP1, Homo sapiens, UniProt Q13283)
Chain of UniProt Q13283 (whole entry, looked up): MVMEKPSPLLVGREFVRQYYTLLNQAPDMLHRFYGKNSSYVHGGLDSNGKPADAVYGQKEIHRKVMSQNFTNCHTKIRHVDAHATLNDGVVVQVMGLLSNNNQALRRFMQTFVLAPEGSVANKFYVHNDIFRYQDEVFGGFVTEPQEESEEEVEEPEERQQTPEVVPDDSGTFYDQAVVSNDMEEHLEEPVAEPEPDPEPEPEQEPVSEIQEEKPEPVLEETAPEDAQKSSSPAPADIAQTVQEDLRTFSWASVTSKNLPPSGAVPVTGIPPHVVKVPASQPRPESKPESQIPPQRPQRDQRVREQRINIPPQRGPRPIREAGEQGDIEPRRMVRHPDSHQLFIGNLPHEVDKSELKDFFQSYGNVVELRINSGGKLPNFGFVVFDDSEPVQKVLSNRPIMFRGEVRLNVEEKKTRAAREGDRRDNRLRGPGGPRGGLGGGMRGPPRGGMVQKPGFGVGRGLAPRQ
`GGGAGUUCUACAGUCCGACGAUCCACAGACAACACGCACCCACACAGACACAGAGGGAAGGGGUUGGGAUGGGGACUGGGUGCACAGCAGGGCGGGGUAGGACCCCAGCCCCUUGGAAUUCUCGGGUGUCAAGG` gave a log2 enrichment of 1.89.
With `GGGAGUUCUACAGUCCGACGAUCCUGUGCUACACAUCGUAUGUACCGAAUCGGAAAAAAAGGGGAAAAAAAGGGAAAAAAAGGGAAAGUAUUAUGUUACGCCGUUCGGAUCUGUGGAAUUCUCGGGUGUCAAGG` the log2 enrichment was -1.
`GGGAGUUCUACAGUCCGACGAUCCUCAAGUCCUGUGCUACACAUCGUAUGUACCGAAUCGGAAAAAGGAGGAAAGGAAAGUAUUAUGUUACGCCGUUCGGAUCUGCACUUCCAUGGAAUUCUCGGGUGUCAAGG` has a log2 enrichment of -0.465.
The log2 enrichment of `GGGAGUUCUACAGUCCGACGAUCACCAUGCAGGUGGCCAUCUUUGGGAAGUGGGGCAAGGGGGGGAUAGGGAGGGGGGUAACACUUUGGGAACAGGUGGUCCCAGGUCGUUUCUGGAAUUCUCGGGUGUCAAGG` is reported as 1.46.
The log2 enrichment of `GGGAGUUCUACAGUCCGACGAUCCCUGUGCUACACAUCGUAUGUACCGAAUCGGCCCCCCGGGGCCCCCCGGGGCCCCCCGGGAAAGUAUUAUGUUACGCCGUUCGGAUCUGCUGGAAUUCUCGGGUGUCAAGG` is reported as -0.91.
With `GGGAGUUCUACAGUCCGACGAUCCCUGUGCUACACAUCGUAUGUACCGAAUCGGUUUUUUUGGUUUUUUUGGUUUUUUUGGGGAAAGUAUUAUGUUACGCCGUUCGGAUCUGCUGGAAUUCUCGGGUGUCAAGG` the log2 enrichment was -1.2.
`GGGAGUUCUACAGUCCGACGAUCCACAGACAACACGCACCCACACAGAAACAGAGGGAAGGGGUUGGGAUGGGGACAGGGUGCACAGCAGGGCGGGGUAGGACCCCAGCCCCUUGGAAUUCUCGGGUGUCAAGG` has a log2 enrichment of 1.81.
The log2 enrichment of `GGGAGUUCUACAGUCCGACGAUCCAAGUCCUGUGCUACACAUCGUAUGUACCGAAUCGGAAAGGGGAAAGGGAAAGGGAAAGUAUUAUGUUACGCCGUUCGGAUCUGCACUUCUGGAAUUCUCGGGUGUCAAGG` is reported as 0.182.
For `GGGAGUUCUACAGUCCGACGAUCUCAAGUCCUGUGCUACACAUCGUAUGUACCGAAUCGGAAAGGUUUUUUUGGAGGAAAGUAUUAUGUUACGCCGUUCGGAUCUGCACUUCCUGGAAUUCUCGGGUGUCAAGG`, the log2 enrichment was -1.13.
The log2 enrichment of `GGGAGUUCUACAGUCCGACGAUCUCCUGUGCUACACAUCGUAUGUACCGAAUCGGGGUUUUUGGGGUUUUUGGUUUUUGGGGAAAGUAUUAUGUUACGCCGUUCGGAUCUGCAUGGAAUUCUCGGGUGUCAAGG` is reported as -0.128.
